# Experimental data gathered from unrelated publications.
# Each line is one published result; not all experiments were run side by side. Numbers after ± are the reported error.
# Chain of UniProt P51955 (whole entry, looked up): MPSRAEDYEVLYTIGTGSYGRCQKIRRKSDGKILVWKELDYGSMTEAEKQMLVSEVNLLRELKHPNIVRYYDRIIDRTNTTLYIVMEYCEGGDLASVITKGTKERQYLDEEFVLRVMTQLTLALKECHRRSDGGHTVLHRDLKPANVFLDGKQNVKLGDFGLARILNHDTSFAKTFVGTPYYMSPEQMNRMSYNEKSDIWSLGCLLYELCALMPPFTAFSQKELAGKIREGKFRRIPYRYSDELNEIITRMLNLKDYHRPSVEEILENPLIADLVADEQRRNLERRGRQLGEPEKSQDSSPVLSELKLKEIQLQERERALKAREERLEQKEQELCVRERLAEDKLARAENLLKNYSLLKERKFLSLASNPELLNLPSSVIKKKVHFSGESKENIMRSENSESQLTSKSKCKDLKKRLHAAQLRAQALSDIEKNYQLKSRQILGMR
Structure (SMILES),tested on,test,system,setting,how to read,endpoint,result
Cn1ncc2cc(-c3cncc(Cl)c3N3CCC4(CCNC4=O)CC3)ccc21,LS174T,"gene expression, microarray, measured: GBP2 mRNA",,"concentration not given, 24 h",relative to: untreated cells,log2 fold change,-1.45
CC(C)C[C@H](NC(=O)[C@@H](CCCCNC(=O)[C@@H](Cc1ccccc1)NC(=O)CCCCCNC(=O)CN1CCN(CC(=O)O)CCN(CC(=O)O)CCN(CC(=O)O)CC1)NC(=O)[C@H](Cc1ccc(O)cc1)NC(=O)[C@H](CO)NC(=O)[C@H](Cc1c[nH]c2ccccc12)NC(=O)[C@H](Cc1c[nH]cn1)NC(=O)[C@@H]1CCC(=O)N1)C(=O)N[C@@H](CCCNC(=N)N)C(=O)N1CCC[C@H]1C(=O)NCC(N)=O [indium-111 labelled],,,"female athymic nude mice, lung","intravenous, 0.037 MBq, 1 h",,tissue uptake,0.57 ± 0.16 %ID/g
C=CC(=O)N1[C@@H](c2ccc3c(c2)OCO3)c2[nH]c3ccccc3c2C[C@H]1C(=O)N1CCN(C)CC1,human cyclin E1 wild type-3xFLAG:CDK2,"co-IP with TMT proteomics, measured: HNRNPK",,"concentration not given, P61978",relative to: wild type DMSO,relative co-enrichment,80%
Cc1ncsc1-c1ccc(C(C)NC(=O)C2CC(O)CN2C(=O)C(NC(=O)CCCCCCCCCCN2CCCC(Nc3ncc(Cl)c(Nc4ccccc4S(=O)(=O)C(C)C)n3)C2)C(C)(C)C)cc1 (stereo not drawn),22Rv1,"RNA-seq, measured: ZNF497 mRNA",,concentration not given,relative to: DMSO,log2 fold change,-1.47
CN1CCCNC(=O)c2cccc(c2)C(=O)NCCCN(C)CCCNc2cccc3c2C(=O)c2cccc(c2C3=O)NCCC1,SAS,"RNA-Seq, measured: SFSWAP mRNA",,"1 µM, 6 h",relative to: untreated cells,log2 fold change,-0.717
C=C(NC(=O)c1csc(-c2nc3c(cc2O)-c2nc(cs2)C(=O)NC(C(C)O)C(=O)NC(=C(C)OC)c2nc(cs2)C(=O)NC2c4nc(cs4)C(=O)NC(COC(=O)c4c5c6c(cccc6n4O)COC(=O)C(OC4CC(C)(O)C(N(C)C)C(C)O4)C2OC5)c2nc-3cs2)n1)C(N)=O (stereo not drawn),,,"Sprague-Dawley rat, male, plasma","intravenous infusion, 6 mg/kg single dose",,AUC(0-last),1830 ng·h/mL
C=C1CC[C@H](OCCCNC(=O)CCOCCOCCOCCOCCOCCOCCOCCOCCOCCOCCOCCOCCOCCOCCOCCOCCOCCOCCOCCOCCOCCOCCOCCOCCOCCOCCOCCOCCOCCOCCOCCOCCOCCOCCOCCOCCNC(=O)CCN2C(=O)CC(SC[C@H](NC(=O)[C@H](Cc3ccccc3)NC(=O)[C@H](CC(N)=O)NC(=O)[C@H](Cc3c[nH]cn3)NC(=O)[C@@H](NC(=O)[C@H](CC(=O)O)NC(=O)[C@H](CCC(N)=O)NC(=O)[C@H](CC(C)C)NC(=O)[C@H](CCCCN)NC(=O)[C@H](CCCCN)NC(=O)[C@H](CCCNC(=N)N)NC(=O)[C@H](CC(C)C)NC(=O)[C@H](Cc3c[nH]c4ccccc34)NC(=O)[C@H](CCC(=O)O)NC(=O)[C@@H](NC(=O)[C@H](CCCNC(=N)N)NC(=O)[C@H](CCC(=O)O)NC(=O)[C@H](CCSC)NC(=O)[C@H](CO)NC(=O)[C@H](CC(N)=O)NC(=O)[C@H](CC(C)C)NC(=O)[C@H](Cc3c[nH]cn3)NC(=O)[C@H](CCCCN)NC(=O)CNC(=O)[C@H](CC(C)C)NC(=O)[C@H](CC(N)=O)NC(=O)[C@H](Cc3c[nH]cn3)NC(=O)[C@H](CCSC)NC(=O)[C@H](CC(C)C)NC(=O)[C@H](CCC(N)=O)NC(=O)[C@@H](NC(=O)[C@H](CCC(=O)O)NC(=O)[C@H](CO)NC(=O)[C@@H](NC(=O)[C@@H](N)CO)C(C)C)[C@@H](C)CC)C(C)C)C(C)C)C(=O)O)C2=O)C/C1=C/C=C1\CCC[C@]2(C)[C@@H]([C@H](C)CCCC(C)(C)O)CC[C@@H]12 (stereo partly drawn),,,"male cynomolgus monkey, plasma","subcutaneous, 0.07 mg/kg, single dose",,AUC(0-t),4850 ng·h/mL
COC1CN([C@H]2CC[C@H]([C@@]3(C)Oc4c(Cl)cc(C(=O)NCc5c(SC)cc(C)[nH]c5=O)c(C)c4O3)CC2)C1,,"RNA-seq, measured: CACNA1E mouse homolog","mouse, HT-1376 xenograft, whole blood",dose not given,relative to: vehicle,log2 fold change,0.435
Nc1ncc(-c2cc(-c3cnn(CC(F)(F)F)c3)ncc2F)nc1C(=O)NC1CNCC(F)C1 (stereo not drawn),ALK,KINOMEscan,,1 µM,relative to: DMSO control,remaining binding,78%
C=CC(=O)Nc1cccc(Cn2ncc3cnc(Nc4cnn(CCOC)c4)nc32)c1,human JNK1,KINOMEscan,,100 nM,relative to: control,binding,72%
Cc1nn(-c2cccc(N)c2)c(=O)c2cnc(Nc3ccc(N4CCNCC4)cc3)nc12,"Serine/threonine-protein kinase Nek2 (NEK2, Homo sapiens, UniProt P51955)","enzyme activity, inhibitor",,,,IC50,1430 nM
CNS(=O)(=O)Nc1nccc(Cc2c(C)c3ccc(Oc4ncccc4F)cc3oc2=O)c1F,NCI-H2342,cell viability,,7 days,,IC50,> 1000 nM

# Repeated from above:
Structure (SMILES),tested on,test,system,setting,how to read,endpoint,result
CC(C)C[C@H](NC(=O)[C@@H](CCCCNC(=O)[C@@H](Cc1ccccc1)NC(=O)CCCCCNC(=O)CN1CCN(CC(=O)O)CCN(CC(=O)O)CCN(CC(=O)O)CC1)NC(=O)[C@H](Cc1ccc(O)cc1)NC(=O)[C@H](CO)NC(=O)[C@H](Cc1c[nH]c2ccccc12)NC(=O)[C@H](Cc1c[nH]cn1)NC(=O)[C@@H]1CCC(=O)N1)C(=O)N[C@@H](CCCNC(=N)N)C(=O)N1CCC[C@H]1C(=O)NCC(N)=O [indium-111 labelled],,,"female athymic nude mice, lung","intravenous, 0.037 MBq, 1 h",,tissue uptake,0.57 ± 0.16 %ID/g
